# Measurements of several laboratories.
# Compare with care: the assays were run in different laboratories.
# CALCR: Calcitonin receptor (CALCR, Homo sapiens, UniProt P30988)
# Sequence of UniProt P30988 (whole entry, looked up): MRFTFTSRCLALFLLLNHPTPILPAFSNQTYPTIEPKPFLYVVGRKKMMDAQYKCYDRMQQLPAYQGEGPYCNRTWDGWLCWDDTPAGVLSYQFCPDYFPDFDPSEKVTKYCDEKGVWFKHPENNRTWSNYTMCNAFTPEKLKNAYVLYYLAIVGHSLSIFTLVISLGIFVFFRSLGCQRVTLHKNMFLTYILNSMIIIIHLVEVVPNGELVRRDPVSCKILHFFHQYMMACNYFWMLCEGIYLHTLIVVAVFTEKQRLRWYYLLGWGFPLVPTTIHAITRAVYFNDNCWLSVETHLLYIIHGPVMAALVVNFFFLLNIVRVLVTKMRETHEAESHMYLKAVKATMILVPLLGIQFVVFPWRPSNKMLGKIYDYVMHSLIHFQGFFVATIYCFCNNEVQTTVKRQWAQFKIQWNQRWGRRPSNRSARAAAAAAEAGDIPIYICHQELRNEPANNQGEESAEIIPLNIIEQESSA
# VHL/BRD9: VHL/BRD9 (Homo sapiens, UniProt P40337+Q9H8M2)
# Sequence of UniProt P40337 (whole entry, looked up): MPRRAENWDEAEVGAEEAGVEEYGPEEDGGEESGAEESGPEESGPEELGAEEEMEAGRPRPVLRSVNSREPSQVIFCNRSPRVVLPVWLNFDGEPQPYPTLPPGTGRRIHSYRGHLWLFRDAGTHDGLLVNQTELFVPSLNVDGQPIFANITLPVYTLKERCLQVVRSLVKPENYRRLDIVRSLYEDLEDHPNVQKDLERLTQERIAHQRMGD
# Sequence of UniProt Q9H8M2 (whole entry, looked up): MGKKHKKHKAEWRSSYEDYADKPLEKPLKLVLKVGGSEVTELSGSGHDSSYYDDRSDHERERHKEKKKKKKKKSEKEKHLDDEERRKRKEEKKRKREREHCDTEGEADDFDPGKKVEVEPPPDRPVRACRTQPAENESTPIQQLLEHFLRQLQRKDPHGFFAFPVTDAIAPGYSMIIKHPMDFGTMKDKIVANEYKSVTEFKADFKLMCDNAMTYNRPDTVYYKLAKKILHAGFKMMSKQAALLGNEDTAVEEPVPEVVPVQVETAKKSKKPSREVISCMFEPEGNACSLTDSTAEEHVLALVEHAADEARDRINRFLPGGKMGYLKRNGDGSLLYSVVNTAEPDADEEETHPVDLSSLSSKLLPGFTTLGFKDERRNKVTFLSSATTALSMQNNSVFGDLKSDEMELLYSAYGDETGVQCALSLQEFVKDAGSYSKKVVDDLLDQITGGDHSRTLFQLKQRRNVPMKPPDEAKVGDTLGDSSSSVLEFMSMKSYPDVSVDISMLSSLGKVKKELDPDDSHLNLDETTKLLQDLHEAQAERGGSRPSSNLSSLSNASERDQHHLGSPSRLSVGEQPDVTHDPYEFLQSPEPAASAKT
# Sequence of UniProt O00398 (whole entry, looked up): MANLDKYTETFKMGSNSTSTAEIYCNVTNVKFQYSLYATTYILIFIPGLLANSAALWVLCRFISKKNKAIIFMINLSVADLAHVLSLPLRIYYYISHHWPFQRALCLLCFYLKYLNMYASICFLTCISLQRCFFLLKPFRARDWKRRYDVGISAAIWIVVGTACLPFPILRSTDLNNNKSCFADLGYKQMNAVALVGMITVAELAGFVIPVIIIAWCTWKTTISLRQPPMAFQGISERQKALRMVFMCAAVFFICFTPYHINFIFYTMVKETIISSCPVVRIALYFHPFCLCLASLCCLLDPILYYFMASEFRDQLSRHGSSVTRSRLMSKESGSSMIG
# Sequence of UniProt P48547 (whole entry, looked up): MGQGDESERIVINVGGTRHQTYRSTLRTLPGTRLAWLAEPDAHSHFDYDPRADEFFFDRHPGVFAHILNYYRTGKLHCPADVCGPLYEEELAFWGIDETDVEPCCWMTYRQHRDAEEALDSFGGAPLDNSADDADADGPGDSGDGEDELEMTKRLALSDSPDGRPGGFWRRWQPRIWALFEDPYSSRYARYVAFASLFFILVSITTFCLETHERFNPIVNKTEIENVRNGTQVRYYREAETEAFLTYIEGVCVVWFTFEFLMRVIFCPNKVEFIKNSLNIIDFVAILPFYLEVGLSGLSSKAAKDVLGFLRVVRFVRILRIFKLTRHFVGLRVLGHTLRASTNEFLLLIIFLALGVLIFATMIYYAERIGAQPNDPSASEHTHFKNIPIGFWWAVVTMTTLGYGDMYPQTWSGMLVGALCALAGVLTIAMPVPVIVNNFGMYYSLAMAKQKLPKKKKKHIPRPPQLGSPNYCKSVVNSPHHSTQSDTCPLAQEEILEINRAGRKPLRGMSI
# Sequence of UniProt P61981 (whole entry, looked up): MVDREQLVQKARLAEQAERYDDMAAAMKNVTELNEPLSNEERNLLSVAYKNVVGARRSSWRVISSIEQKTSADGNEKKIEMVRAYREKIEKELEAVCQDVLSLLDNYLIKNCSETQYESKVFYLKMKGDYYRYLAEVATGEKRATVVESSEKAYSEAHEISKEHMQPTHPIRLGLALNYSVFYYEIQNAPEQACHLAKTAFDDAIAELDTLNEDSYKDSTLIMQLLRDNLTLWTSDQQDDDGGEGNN
# Sequence of UniProt P49286 (whole entry, looked up): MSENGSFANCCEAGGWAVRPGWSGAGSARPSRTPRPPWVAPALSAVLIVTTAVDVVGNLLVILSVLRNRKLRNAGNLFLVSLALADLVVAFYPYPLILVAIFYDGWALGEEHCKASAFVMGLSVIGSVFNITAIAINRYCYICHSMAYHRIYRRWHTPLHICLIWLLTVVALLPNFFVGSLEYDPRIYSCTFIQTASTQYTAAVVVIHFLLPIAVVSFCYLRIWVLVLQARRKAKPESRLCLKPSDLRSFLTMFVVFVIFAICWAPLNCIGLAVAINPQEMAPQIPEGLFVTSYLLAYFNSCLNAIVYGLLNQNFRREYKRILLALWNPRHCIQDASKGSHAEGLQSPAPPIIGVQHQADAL
# Sequence of UniProt Q04206 (whole entry, looked up): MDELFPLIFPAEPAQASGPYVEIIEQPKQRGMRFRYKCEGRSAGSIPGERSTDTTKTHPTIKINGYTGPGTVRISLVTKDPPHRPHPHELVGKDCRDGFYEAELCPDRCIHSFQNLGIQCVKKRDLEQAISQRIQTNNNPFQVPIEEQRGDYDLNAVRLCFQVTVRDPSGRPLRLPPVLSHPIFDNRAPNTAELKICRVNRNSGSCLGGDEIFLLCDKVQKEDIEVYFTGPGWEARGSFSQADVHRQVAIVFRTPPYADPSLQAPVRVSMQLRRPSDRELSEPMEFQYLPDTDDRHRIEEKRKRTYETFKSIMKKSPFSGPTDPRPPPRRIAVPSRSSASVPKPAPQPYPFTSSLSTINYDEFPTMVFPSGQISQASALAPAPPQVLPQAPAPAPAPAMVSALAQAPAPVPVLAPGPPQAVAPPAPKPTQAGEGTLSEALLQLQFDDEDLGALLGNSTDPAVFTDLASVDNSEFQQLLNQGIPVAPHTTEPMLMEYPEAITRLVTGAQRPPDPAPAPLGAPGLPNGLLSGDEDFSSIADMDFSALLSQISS
SMILES,target or system,test,test system,conditions,measurement,value
Cc1ncc(CNc2nc(N3CC(CCOc4cc(-c5scnc5C)ccc4CNC(=O)[C@@H]4C[C@@H](O)CN4C(=O)[C@@H](NC(=O)C4(F)CC4)C(C)(C)C)C3)nc(N3CCC[C@H]3Cn3ccnn3)n2)c(N)n1,"VHL/BRD9, with Elongin B/C (Homo sapiens, UniProt P40337+Q9H8M2)","ternary complex formation, AlphaScreen",,added: 50 nM His-BRD9 and 20 nM biotin-VCB,EC50,0.07 µM
CC[C@H](C)[C@@H](C(=O)N[C@@H](CC(C)C)C(=O)N[C@@H](CO)C(=O)N[C@@H](CO)C(=O)N[C@H](C(=O)N[C@@H](CC(N)=O)C(=O)N[C@H](C(=O)NCC(=O)N[C@@H](CO)C(=O)N[C@@H](CC(N)=O)C(=O)N[C@H](C(=O)N1C[C@H](O)C[C@H]1C(N)=O)[C@@H](C)O)C(C)C)[C@@H](C)O)N(C)C(=O)[C@H](C)NC(=O)CN(C)C(=O)[C@H](Cc1ccccc1)NC(=O)[C@H](CC(N)=O)NC(=O)[C@H](CC(N)=O)NC(=O)[C@H](CO)NC(=O)[C@H](CO)NC(=O)[C@H](CCCNC(=N)N)NC(=O)[C@H](Cc1c[nH]cn1)NC(=O)[C@H](CC(C)C)NC(=O)[C@H](Cc1ccccc1)NC(=O)[C@H](CCC(=O)O)NC(=O)[C@H](C)NC(=O)[C@H](CC(C)C)NC(=O)[C@H](CCCNC(=N)N)NC(=O)[C@H](CCC(N)=O)NC(=O)[C@@H](NC(=O)[C@H](C)NC(=O)[C@@H]1CSSC[C@H](NC(=O)[C@H](CCCNC(=N)N)NC(=O)CC[C@H](NC(=O)CCCCCCCCCCCCCCCCCCC(=O)O)C(=O)O)C(=O)N[C@@H](CC(N)=O)C(=O)N[C@@H]([C@@H](C)O)C(=O)N[C@@H](C)C(=O)N[C@@H]([C@@H](C)O)C(=O)N1)[C@@H](C)O,CALCR,"cAMP, agonist",,,EC50,8.13e-05 µM
Cc1ncc2[nH]c(=O)n(-c3cnc(Oc4cccc5c4C(C)(C)CO5)c(Cl)c3)c2n1,"KCNC1 (Homo sapiens, UniProt P48547)","ion current, activator, automated patch clamp",HEK293 expressing Kv3.1,"holding -70 mV, test -15 mV",EC50,0.078 µM
CC(=O)NCC1CCCCN1c1nc(NCC2Cc3ccccc3O2)nc(N2CC3C(CCOc4cc(-c5scnc5C)ccc4CNC(=O)C4CC(O)CN4C(=O)C(NC(=O)C4(F)CC4)C(C)(C)C)C3C2)n1 (stereo not drawn),VHL/BRD9,"ternary complex formation, NanoBiT",HEK293T,"2 h, added: MLN4924 2 µM",EC50,0.054 µM
Cc1nn(-c2cccc(N)c2)c(=O)c2cnc(Nc3ccc(N4CCNCC4)cc3)nc12,"PRKCG (Homo sapiens, UniProt P05129)","enzyme activity, inhibitor",,,IC50,4.01 µM
COc1ccc2[nH]c(-c3cccc4ccccc34)c(CCNC(=O)CI)c2n1,"MTNR1B (Homo sapiens, UniProt P49286)","cAMP, agonist, TR-FRET",,,EC50,3.31 µM
C#CCN1CCN(c2nc(N3CCC(CCOc4cc(-c5scnc5C)ccc4CNC(=O)[C@@H]4C[C@@H](O)CN4C(=O)[C@@H](NC(=O)C4(F)CC4)C(C)(C)C)CC3)nc(N3CCN(C(=O)C4CC4)C3)n2)CC1=O,VHL/BRD9,"ternary complex formation, NanoBiT",HEK293T,"2 h, added: MLN4924 2 µM",EC50,0.029 µM
c1ccc(Nc2ncnc3ccc(-c4cccc(N5CCOCC5)c4)cc23)cc1,Leishmania major,"intracellular amastigote growth, luciferase",RAW264.7 macrophages,,EC50,26 µM
O=C(Cc1ccc(OCc2ccccc2)cc1)NC1(C(=O)O)CCN(C(=O)c2ccc(-c3cccc(Cl)c3)cc2)CC1,"Putative P2Y purinoceptor 10 (Homo sapiens, UniProt O00398)","TGF-alpha shedding, agonist",,,EC50,> 10 µM
CC[C@H](C)[C@@H](C(=O)N[C@@H](CC(C)C)C(=O)N[C@@H](CO)C(=O)N[C@@H](CO)C(=O)N[C@H](C(=O)N[C@@H](CC(N)=O)C(=O)N[C@H](C(=O)NCC(=O)N[C@@H](CO)C(=O)N[C@@H](CC(N)=O)C(=O)N[C@H](C(=O)N[C@@H](Cc1ccc(O)cc1)C(N)=O)[C@@H](C)O)C(C)C)[C@@H](C)O)N(C)C(=O)[C@H](C)NC(=O)CN(C)C(=O)[C@H](Cc1ccccc1)NC(=O)[C@H](CC(N)=O)NC(=O)[C@H](CC(N)=O)NC(=O)[C@H](CO)NC(=O)[C@H](CO)NC(=O)[C@H](CCCNC(=N)N)NC(=O)[C@H](Cc1c[nH]cn1)NC(=O)[C@H](CC(C)C)NC(=O)[C@H](Cc1ccccc1)NC(=O)[C@H](CCC(=O)O)NC(=O)[C@H](C)NC(=O)[C@H](CC(C)C)NC(=O)[C@H](CCCNC(=N)N)NC(=O)[C@H](CCC(N)=O)NC(=O)[C@@H](NC(=O)[C@H](C)NC(=O)[C@@H]1CSSC[C@H](NC(=O)[C@H](CCCNC(=N)N)NC(=O)CC[C@H](NC(=O)CCCCCCCCCCCCCCCCCCC(=O)O)C(=O)O)C(=O)N[C@@H](CC(N)=O)C(=O)N[C@@H]([C@@H](C)O)C(=O)N[C@@H](C)C(=O)N[C@@H]([C@@H](C)O)C(=O)N1)[C@@H](C)O,CALCR,"cAMP, agonist",,,EC50,0.000562 µM
O=S(=O)(c1cccc(-c2ccc3ncnc(Nc4ccc(OCc5cccc(F)c5)c(Cl)c4)c3c2)c1)N1CCCC1,Leishmania major,"intracellular amastigote growth, luciferase",RAW264.7 macrophages,,EC50,> 15 µM
CC[C@H](C)[C@@H](C(=O)N[C@@H](CC(C)C)C(=O)N[C@@H](CO)C(=O)N[C@@H](CO)C(=O)N[C@H](C(=O)N[C@@H](CCC(=O)O)C(=O)N[C@H](C(=O)NCC(=O)N[C@@H](CO)C(=O)N[C@@H](CC(N)=O)C(=O)N[C@H](C(=O)N1C[C@H](O)C[C@H]1C(N)=O)[C@@H](C)O)C(C)C)[C@@H](C)O)N(C)C(=O)[C@H](C)NC(=O)CN(C)C(=O)[C@H](Cc1ccccc1)NC(=O)[C@H](CO)NC(=O)[C@H](CO)NC(=O)[C@H](CCCNC(=N)N)NC(=O)[C@H](CCC(N)=O)NC(=O)[C@H](CC(C)C)NC(=O)[C@H](Cc1ccccc1)NC(=O)[C@H](Cc1c[nH]cn1)NC(=O)[C@H](C)NC(=O)[C@H](CC(C)C)NC(=O)[C@H](CCCNC(=N)N)NC(=O)[C@H](CCC(=O)O)NC(=O)[C@@H](NC(=O)[C@H](C)NC(=O)[C@@H]1CCCCCNC(=O)C[C@H](NC(=O)[C@H](CCCNC(=N)N)NC(=O)CC[C@H](NC(=O)CCCCCCCCCCCCCCCCCCC(=O)O)C(=O)O)C(=O)NCC(=O)N[C@@H]([C@@H](C)O)C(=O)N[C@@H](C)C(=O)N[C@@H]([C@@H](C)O)C(=O)N1)[C@@H](C)O,CALCR,"cAMP, agonist",,,EC50,0.000219 µM
Cn1c(=O)c(C(N)=O)c(N2CCC(Oc3ccc(OC(F)(F)F)cc3)CC2)c2ccccc21,"DGKZ (Homo sapiens, UniProt Q13574)","DGKζ-YFP translocation, high-content imaging",Jurkat,,EC50,> 3 µM
CC[C@H](C)[C@@H](C(=O)N[C@@H](CC(C)C)C(=O)N[C@@H](CO)C(=O)N[C@@H](CO)C(=O)N[C@H](C(=O)N[C@@H](CCC(=O)O)C(=O)N[C@H](C(=O)NCC(=O)N[C@@H](CO)C(=O)N[C@@H](CO)C(=O)N[C@H](C(=O)N1C[C@H](O)C[C@H]1C(N)=O)[C@@H](C)O)C(C)C)[C@@H](C)O)N(C)C(=O)[C@H](C)NC(=O)CN(C)C(=O)[C@H](Cc1ccccc1)NC(=O)[C@H](CO)NC(=O)[C@H](CO)NC(=O)[C@H](CCCNC(=N)N)NC(=O)[C@H](CCC(N)=O)NC(=O)[C@H](CC(C)C)NC(=O)[C@H](Cc1ccccc1)NC(=O)[C@H](Cc1c[nH]cn1)NC(=O)[C@H](C)NC(=O)[C@H](CC(C)C)NC(=O)[C@H](CCCNC(=N)N)NC(=O)[C@H](CCC(=O)O)NC(=O)[C@@H](NC(=O)[C@H](C)NC(=O)[C@@H]1CSSC[C@H](NC(=O)[C@H](CCCNC(=N)N)NC(=O)CC[C@H](NC(=O)CCCCCCCCCCCCCCCCCCC(=O)O)C(=O)O)C(=O)NCC(=O)N[C@@H]([C@@H](C)O)C(=O)N[C@@H](C)C(=O)N[C@@H]([C@@H](C)O)C(=O)N1)[C@@H](C)O,CALCR,"cAMP, agonist",,,EC50,0.00017 µM
CC(C)S(=O)(=O)Oc1cc(C=O)ccc1[N+](=O)[O-],"YWHAG/RELA, phospho-Ser45 p65 peptide (Homo sapiens, UniProt P61981+Q04206)","ternary complex formation, stabilizer, fluorescence anisotropy",,,EC50,> 1000 µM

# A few entries again:
SMILES,target or system,test,test system,conditions,measurement,value
CC[C@H](C)[C@@H](C(=O)N[C@@H](CC(C)C)C(=O)N[C@@H](CO)C(=O)N[C@@H](CO)C(=O)N[C@H](C(=O)N[C@@H](CC(N)=O)C(=O)N[C@H](C(=O)NCC(=O)N[C@@H](CO)C(=O)N[C@@H](CC(N)=O)C(=O)N[C@H](C(=O)N1C[C@H](O)C[C@H]1C(N)=O)[C@@H](C)O)C(C)C)[C@@H](C)O)N(C)C(=O)[C@H](C)NC(=O)CN(C)C(=O)[C@H](Cc1ccccc1)NC(=O)[C@H](CC(N)=O)NC(=O)[C@H](CC(N)=O)NC(=O)[C@H](CO)NC(=O)[C@H](CO)NC(=O)[C@H](CCCNC(=N)N)NC(=O)[C@H](Cc1c[nH]cn1)NC(=O)[C@H](CC(C)C)NC(=O)[C@H](Cc1ccccc1)NC(=O)[C@H](CCC(=O)O)NC(=O)[C@H](C)NC(=O)[C@H](CC(C)C)NC(=O)[C@H](CCCNC(=N)N)NC(=O)[C@H](CCC(N)=O)NC(=O)[C@@H](NC(=O)[C@H](C)NC(=O)[C@@H]1CSSC[C@H](NC(=O)[C@H](CCCNC(=N)N)NC(=O)CC[C@H](NC(=O)CCCCCCCCCCCCCCCCCCC(=O)O)C(=O)O)C(=O)N[C@@H](CC(N)=O)C(=O)N[C@@H]([C@@H](C)O)C(=O)N[C@@H](C)C(=O)N[C@@H]([C@@H](C)O)C(=O)N1)[C@@H](C)O,CALCR,"cAMP, agonist",,,EC50,8.13e-05 µM
